Measured values collected from several papers.
A part holds a random share of what one study measured.

Study 1 — technique: RNA Bind-n-Seq; form: RNA; matrix: in vitro; tested at: 365 nM; relative to: no-protein control; direction: higher = stronger binding
Target: RNA binding protein fox-1 homolog 2, RRM domain, GST-SBP tag (RBFOX2, Homo sapiens, UniProt O43251-10, residues 100-194)
Notes: natural RNA segment, single round, ends assumed
Construct (chain): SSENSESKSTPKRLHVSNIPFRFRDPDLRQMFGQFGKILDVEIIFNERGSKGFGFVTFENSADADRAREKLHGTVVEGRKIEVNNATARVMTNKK
`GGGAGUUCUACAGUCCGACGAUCGAGCUGGGCAAGAUUUUGGGUUUGCUGCUCCCUGAAGCUGGAUUCUUUCAUACGAUACUCUUUCUCAAGAAGGGGGCUCCCUGGGAUCUCCAGGUGUACUGCACUUACCCUGGAAUUCUCGGGUGCCAA`: “RBNS enrichment (R)” 1.27.
`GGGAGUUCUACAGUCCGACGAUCGGUGGUGUUCUGGUAAAAUUGUUAGAAUAGCUGUAUGAAGGAAACCAGUGGGAGGAAAUGAAGUUUUCAGGAUGGUGGGAUGUGAUUUAGACAGUGCACAUGCUGUUAGGUGGAAUUCUCGGGUGCCAA` — result for “RBNS enrichment (R)”: 1.6.
`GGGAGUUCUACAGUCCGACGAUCACCUCGCUCUAAUGGCUUAACAGUUGUUCUGGGUGGAAACGUCCCCUCAUUUGAAUGCUCCUCUAAAAAAAAAAGAAAAGAAAACUGUAUUCAUUCCCUUUAAAAUGAAAUGGAAUUCUCGGGUGCCAA` — result for “RBNS enrichment (R)”: 0.646.
For `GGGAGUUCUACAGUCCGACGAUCGUUGUUCUUUCGUUUCUGUCUAAAUGUCAGUGUGUUCAAACCCCCAGAGGGUUCUGUUUUUCCCAUUCCCUUCUGGACUUUAAAUAAAUAUUUAAAACUGAGCAAUGGAAUGGAAUUCUCGGGUGCCAA`, “RBNS enrichment (R)” read 0.267.
`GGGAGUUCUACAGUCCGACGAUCUUUUUGAGUCAGAGUAGGGCUGGAGAACACUUCAUAUUUGAUGCCUUUUAGCUAAAGACAUUCAUUACUAUAGCACUUCCCAGGCAUUGAAGAGGCAGAGUGAUUUAGAGUGGAAUUCUCGGGUGCCAA` — result for “RBNS enrichment (R)”: 0.669.
`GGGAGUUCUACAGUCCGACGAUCUCUUUGUCCUCCCUCUGCCCAGAUUUUGAUGUAGUCUAAUUGACAUCCUUCUCUUCCCAACUUUUGUGUGAUCUUUUAGGAAAAAAAAUAAAUAUUUUUAACAUUAAAGCUGGAAUUCUCGGGUGCCAA` — result for “RBNS enrichment (R)”: 0.683.

Study 2 — technique: protein-binding microarray; form: double-stranded DNA, one strand shown; matrix: in vitro; tested at: 2540 nM top; notes: 60-bp whole probe; added: salmon DNA 0.4 mg/ml; relative to: random background probes; direction: higher = stronger binding; all sequences stand within: GCCTAGCAC … GTCTTGATTCGCTTGACGCTGCTG
Target: Interferon regulatory factor 3, full length, phosphomimetic (IRF3, Homo sapiens, UniProt Q14653, residues 1-427, S386D/S396D/S398D/S402D/T404D/S405D)
Chain of UniProt Q14653 (whole entry, unmodified, looked up): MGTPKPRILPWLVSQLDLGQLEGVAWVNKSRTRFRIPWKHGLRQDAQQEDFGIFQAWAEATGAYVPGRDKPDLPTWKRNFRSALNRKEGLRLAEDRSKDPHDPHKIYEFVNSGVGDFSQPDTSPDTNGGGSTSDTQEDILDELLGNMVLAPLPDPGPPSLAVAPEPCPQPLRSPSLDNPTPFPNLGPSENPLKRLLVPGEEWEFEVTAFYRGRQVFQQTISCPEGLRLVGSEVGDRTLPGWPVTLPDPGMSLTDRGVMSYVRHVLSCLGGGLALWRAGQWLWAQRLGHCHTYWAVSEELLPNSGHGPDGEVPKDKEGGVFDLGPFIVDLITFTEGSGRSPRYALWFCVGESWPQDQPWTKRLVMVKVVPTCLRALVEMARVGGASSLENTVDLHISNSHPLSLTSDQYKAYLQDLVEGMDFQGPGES
`TTAGGTATCGGGTATGGGTTAGTGCTA` — result for “fitted relative affinity”: 1.02 z-score.
`TTAGGTATCGCACTGGGTTAGTGCTAG` — result for “fitted relative affinity”: 0.585 z-score.
`GCAGGGCTCTCTTCTGCTTCCGTGCTA`: “fitted relative affinity” -0.638 z-score.
`TCATTTTTGGTTTCTGGACTGTGCTAG` — result for “fitted relative affinity”: 4 z-score.
`AAGTGTTTGGTGTCTTTTGTGGTGCTA` — result for “fitted relative affinity”: -0.582 z-score.
`ACCATTGTGGTTTTCATTATGTGCTAG`: “fitted relative affinity” 1.62 z-score.
For `TCATCTCACGCATCTGAAACTGTGCTA`, “fitted relative affinity” read 0.656 z-score.
For `GACGGTTTCGGGACCGGGGACGTGCTA`, “fitted relative affinity” read 4.23 z-score.
`TAATTTCCATTTTCTAAATTCGTGCTA` — result for “fitted relative affinity”: 6.86 z-score.
`GACGATTCCCTTTTCCTGACGTGCTAG`: “fitted relative affinity” 3.77 z-score.
`GACGATATCGGTTTTCGAGACGTGCTA`: “fitted relative affinity” 2.52 z-score.
`TCAGAATTCAGAATGGGACTGTGCTAG`: “fitted relative affinity” 0.513 z-score.
`TTAGGTTTGCTTTCCCTTTAGTGCTAG`: “fitted relative affinity” 5.08 z-score.
`TCAAATTCTCATTTCCAACTGTGCTAG`: “fitted relative affinity” 1.74 z-score.
For `TTAGAACTGGGGTATGGATTAGTGCTA`, “fitted relative affinity” read -0.673 z-score.
`GACGGTTGCGACTTTCGGGACGTGCTA`: “fitted relative affinity” 1.25 z-score.

Study 3 — technique: RNA Bind-n-Seq; form: RNA; matrix: in vitro; tested at: not given; notes: RNA with constant flanks, ends assumed; relative to: input RNA pool; direction: higher = stronger binding
Target: RING finger protein unkempt homolog, zinc fingers 1-6, GST-SBP tag (UNK, Homo sapiens, UniProt Q9C0B0, residues 30-357)
Residues (chain): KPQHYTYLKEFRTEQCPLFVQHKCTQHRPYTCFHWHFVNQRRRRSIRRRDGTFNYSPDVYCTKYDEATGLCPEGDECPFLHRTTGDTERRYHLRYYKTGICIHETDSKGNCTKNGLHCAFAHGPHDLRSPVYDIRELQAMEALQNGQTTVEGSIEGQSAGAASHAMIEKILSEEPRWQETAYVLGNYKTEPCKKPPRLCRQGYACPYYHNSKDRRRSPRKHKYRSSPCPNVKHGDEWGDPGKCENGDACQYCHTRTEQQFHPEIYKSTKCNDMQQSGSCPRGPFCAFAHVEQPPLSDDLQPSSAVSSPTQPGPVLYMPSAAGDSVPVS
The bound/input enrichment of `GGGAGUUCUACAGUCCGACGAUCCACUGCGAAAAUUCAUUCCGCUGUAAUGUUUUCACAAUAUUUAAAGCAGAAGCACGUCAGUCCGGAUUUCCUUCUGCAUAAGGUUUUUUUGUAGUGUAAUGUCUUAAUCAUAGUCUACCACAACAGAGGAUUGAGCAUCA` is reported as 0.31 ratio.
`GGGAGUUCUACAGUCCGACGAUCAAAGAGAAACUAAAGCAACUAAUAGAGAAGAGGAUUGGCAAAGAGAAUUUCAUAGAGAAACCCGGAUUUAUUAGCAAACAUGAGUUAUAUUCCAGAGCGUCUCAGAAACCCCAGCCAAACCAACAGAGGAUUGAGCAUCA` gave a bound/input enrichment of 0.96 ratio.
`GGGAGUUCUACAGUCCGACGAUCGCAAAUUUUGCCAGGAACGAUGGAAAUUGUAUUCAUAUGGUAGACAAUGGGAUUGCCGAAAAACUCAUGGAUUUGCUGGACAGACACGUAGAAGACGGGAACGUGACGGUGCAGCACGCCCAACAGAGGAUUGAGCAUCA` has a bound/input enrichment of 0.161 ratio.
With `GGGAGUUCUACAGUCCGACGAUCAUAGAAGCAGCGCCUGAGUCCCAGAUGAUGCCCGCCAGCGUCCUAACGGGCAAUGUCAUCACCGAGACAAAGUUCUUUGACGAUGAUCUUCUUGUCAGCACAUCCAAAGUGAGGCUUUUCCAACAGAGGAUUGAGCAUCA` the bound/input enrichment was 0.0724 ratio.
The bound/input enrichment of `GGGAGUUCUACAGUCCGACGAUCUCAUUGCCCUCAACAUGAAGACUGCCAUAUUCCAAGUCACAUCAUUUUACCAAUGGAGUUACCGAAUUAACAGUAUUUUCAAUUACGUUUAUAACACUGCAGAGACCUUAAGUGCUAAACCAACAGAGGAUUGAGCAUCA` is reported as 0.128 ratio.
`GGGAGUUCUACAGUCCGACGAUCGGCUUCAGCAGUGUGCUCCAGUUCCUAGGACUCUACAAGAAAUCUGGAAAACUUGUAUUCUCCGGAUUGGACAAUGCGGGCAAAACCACUCUUCUUCACAUGCUGAAAGAUGACAGACUACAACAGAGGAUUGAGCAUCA` gave a bound/input enrichment of 0.193 ratio.
`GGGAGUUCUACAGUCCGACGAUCAUUAAAAAUGCUUGUCUACAAACAUCUUCCCUUGCGGUUCGUGUAAAUUCAUUAGUGUGCUCCGGAAAGAUUUUGGAAUACUUGGAUAAGUGGUUUGUACUUGAUGAUAUCCUACCCUUCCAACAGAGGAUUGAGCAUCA` has a bound/input enrichment of 0.169 ratio.
`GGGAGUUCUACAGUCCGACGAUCCAUAGGCCUGGGCUAGAGUGUCAAUGGCAGCCAGGGGUCUUCUCCAUCUCCAGAGGCCUUUACCGAGCCGGCCAGAAUAUACAUUCCCUUCUGGCAAAAACCACUGGCACCCAGGAUCAUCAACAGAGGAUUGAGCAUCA` has a bound/input enrichment of 0.226 ratio.

Study 4 — technique: RNA Bind-n-Seq; form: RNA; matrix: in vitro; tested at: 1 µM; notes: whole 134-nt RNA, ends assumed; added: 150 mM KCl; relative to: input library; direction: higher = stronger binding
Target: Ras GTPase-activating protein-binding protein 1, RRM domain (G3BP1, Homo sapiens, UniProt Q13283)
Chain of UniProt Q13283 (whole entry, looked up): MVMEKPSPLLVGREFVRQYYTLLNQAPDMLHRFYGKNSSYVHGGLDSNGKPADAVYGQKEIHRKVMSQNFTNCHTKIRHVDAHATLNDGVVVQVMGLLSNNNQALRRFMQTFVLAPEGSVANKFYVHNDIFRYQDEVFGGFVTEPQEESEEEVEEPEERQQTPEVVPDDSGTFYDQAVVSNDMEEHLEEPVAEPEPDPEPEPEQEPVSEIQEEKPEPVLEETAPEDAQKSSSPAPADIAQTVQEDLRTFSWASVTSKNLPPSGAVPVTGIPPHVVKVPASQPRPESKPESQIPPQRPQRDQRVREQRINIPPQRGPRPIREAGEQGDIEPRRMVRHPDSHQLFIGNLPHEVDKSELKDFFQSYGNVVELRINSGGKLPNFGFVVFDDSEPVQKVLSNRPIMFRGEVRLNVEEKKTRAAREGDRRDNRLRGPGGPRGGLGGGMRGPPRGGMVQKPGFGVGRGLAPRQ
`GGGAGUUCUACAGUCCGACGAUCAAGUCCUGUGCUACACAUCGUAUGUACCGAAUCGGGAAAGGGAAAGGGGAAAGGGGAAAGUAUUAUGUUACGCCGUUCGGAUCUGCACUUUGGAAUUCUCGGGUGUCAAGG` gave a log2 enrichment of 0.602.
`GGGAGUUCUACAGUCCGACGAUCUGGGAGGUGGAUUUUGUUUAUUUUUUUAGCUCAUUUCGAGGGGUGGGAAUUUUUUUUUAAUAUGUGUCAUGAAUAAAGUUGUUUUUGAAAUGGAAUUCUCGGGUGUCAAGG` gave a log2 enrichment of 1.88.
`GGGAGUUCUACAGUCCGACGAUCCUCAAGUCCUGUGCUACACAUCGUAUGUACCGAAUCGGAAAAAGGAAAGGUGGAAAGUAUUAUGUUACGCCGUUCGGAUCUGCACUUCCAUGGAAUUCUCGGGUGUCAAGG` has a log2 enrichment of -0.193.
The log2 enrichment of `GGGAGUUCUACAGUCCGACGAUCUGCUGCUUUCUGCCUUGGUGGCAGGCAGAGAACUGUCUCGUACUAGAAUUCAAGGAGGAAAGAAGAAGAAAUAAAAGAAGCUGCUCCAUUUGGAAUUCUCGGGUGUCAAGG` is reported as -0.0395.
`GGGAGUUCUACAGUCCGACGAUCGCAGGAAGUAAAAACAAAUGGAAAUGCUUCGGAUAGUGACAGGGGUGGGGGUUGCUAAGGAAAGGGUGGGAUGGGAGUGGGUAAAGAGUUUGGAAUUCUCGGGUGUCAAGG` gave a log2 enrichment of 0.803.
With `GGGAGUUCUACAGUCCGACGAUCACCAUGCAGGUGGGCAUCUUUGGGAAGUGGGGCAAGGGGGGGAUAGGGAGGGGGAAAACACUUUGGGAACAGGUGGUCCCAGGUCGUUUCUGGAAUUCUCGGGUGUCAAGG` the log2 enrichment was -0.348.
For `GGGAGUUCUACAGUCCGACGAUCUGAAUGCUGAGAAUGUUGCUGGUCACCAGAUUGCCUCUGAAACACAGAUCCUUGAGGGCUCUUUGGGAAUAUCUGUAAAGUCACACUGCAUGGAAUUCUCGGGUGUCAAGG`, the log2 enrichment was -0.0373.
With `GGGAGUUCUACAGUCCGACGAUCGUCCUGUGCUACACAUCGUAUGUACCGAAUCGGGUUUUUUUGGGUUUGGGAAAAAGGGAAAGUAUUAUGUUACGCCGUUCGGAUCUGCACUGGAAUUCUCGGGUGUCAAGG` the log2 enrichment was -0.129.
`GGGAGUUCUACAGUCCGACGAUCUCAAGUCCUGUGCUACACAUCGUAUGUACCGAAUCGGGAGGGAAAGGGUUUGGGAAAGUAUUAUGUUACGCCGUUCGGAUCUGCACUUCCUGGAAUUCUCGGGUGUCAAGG` has a log2 enrichment of 0.706.
With `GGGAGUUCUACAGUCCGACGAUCAAGUCCUGUGCUACACAUCGUAUGUACCGAAUCGGGGAAAGGGGAAAGGGAAAGGGAAAGUAUUAUGUUACGCCGUUCGGAUCUGCACUUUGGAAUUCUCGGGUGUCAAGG` the log2 enrichment was 0.393.
